Experimental data pooled from the literature.
Parts stem from different laboratories: compare values within a part only.

Set 1
Target: Interferon regulatory factor 7, full length, phosphomimetic (IRF7, Homo sapiens, UniProt Q92985, residues 1-503, S101K/S471D/S472D/S475D/S476D/S477D/S483D/S484D/S487D)
Method: protein-binding microarray
Molecule type: double-stranded DNA, one strand shown
Medium: in vitro
Tested at: 250 nM
Setting: 60-bp whole probe
Added: salmon DNA 0.4 mg/ml
Reference: random background probes
Reading: higher = stronger binding
Target sequence (chain): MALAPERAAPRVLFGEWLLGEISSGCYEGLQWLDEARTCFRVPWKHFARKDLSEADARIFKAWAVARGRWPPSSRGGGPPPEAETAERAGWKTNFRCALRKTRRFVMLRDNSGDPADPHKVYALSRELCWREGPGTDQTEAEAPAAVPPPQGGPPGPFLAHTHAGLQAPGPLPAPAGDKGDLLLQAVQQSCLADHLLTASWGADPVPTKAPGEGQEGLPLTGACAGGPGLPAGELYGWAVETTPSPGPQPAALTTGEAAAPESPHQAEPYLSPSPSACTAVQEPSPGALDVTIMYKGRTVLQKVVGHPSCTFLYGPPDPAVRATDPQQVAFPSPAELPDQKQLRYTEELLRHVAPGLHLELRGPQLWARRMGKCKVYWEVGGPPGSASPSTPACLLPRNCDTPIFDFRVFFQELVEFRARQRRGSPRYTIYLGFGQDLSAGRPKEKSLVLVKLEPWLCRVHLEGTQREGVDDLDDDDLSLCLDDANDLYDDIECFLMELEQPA
Strand | log fluorescence [z-score]
GCCTAGCACTTACATTTTAATTTTATTTGGTGCTAGGTCTTGATTCGCTTGACGCTGCTG | 0.543
GCCTAGCACTTGGATTTCAGTTCCGATTAGTGCTAGGTCTTGATTCGCTTGACGCTGCTG | 1.3
GCCTAGCACTTAGATATCAGAATCGATTAGTGCTAGGTCTTGATTCGCTTGACGCTGCTG | 0.59
GCCTAGCACGTCGATATCGGGTATCGAGACGTGCTAGTCTTGATTCGCTTGACGCTGCTG | 0.626

Set 2
Target: Centromere-binding protein 1, full length, N-terminal tag (CBF1, Saccharomyces cerevisiae, UniProt P17106, residues 1-351)
Sequence of UniProt P17106 (whole entry, looked up): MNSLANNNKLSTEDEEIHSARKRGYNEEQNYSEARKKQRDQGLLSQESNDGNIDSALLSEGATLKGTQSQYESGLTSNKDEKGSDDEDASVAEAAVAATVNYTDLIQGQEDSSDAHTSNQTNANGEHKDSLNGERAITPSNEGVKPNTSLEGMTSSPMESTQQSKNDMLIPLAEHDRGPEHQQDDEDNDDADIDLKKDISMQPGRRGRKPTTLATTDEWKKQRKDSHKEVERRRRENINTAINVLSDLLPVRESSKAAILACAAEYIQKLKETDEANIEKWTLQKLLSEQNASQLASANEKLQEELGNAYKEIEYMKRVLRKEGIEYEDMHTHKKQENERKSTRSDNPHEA
Method: protein-binding microarray
Molecule type: double-stranded DNA, one strand shown
Medium: in vitro
Tested at: 0.8 µM
Setting: whole 60-bp probe, no competitor
Reading: higher = stronger binding
Strand | fluorescence intensity [a.u.]
GAATAGCCGGTTAAGCACGTTGATATTGTTCTTTAGGTCTTGATTCGCTTGACGCTGCTG | 566
GAATTTAGTGTAAAAAAGGTGATGATAATTTATTAGGTCTTGATTCGCTTGACGCTGCTG | 535
GAAGAACAAAAACAAAACGTGGGTAAAGAACAATAGGTCTTGATTCGCTTGACGCTGCTG | 591
GAAGATATTGAATCACATGGGATTTCAGATTTCTAGGTCTTGATTCGCTTGACGCTGCTG | 1750

Set 3
Target: Histone acetyltransferase KAT6A, both winged helices, GST fusion (KAT6A, Homo sapiens, UniProt Q92794, residues 1-181)
Method: protein binding microarray
Molecule type: double-stranded DNA, one strand shown
Medium: in vitro
Tested at: not given
Setting: 8-mer, flanks averaged, mean of 2 arrays, mostly near background
Reference: not given
Reading: higher = stronger binding
Target sequence (chain): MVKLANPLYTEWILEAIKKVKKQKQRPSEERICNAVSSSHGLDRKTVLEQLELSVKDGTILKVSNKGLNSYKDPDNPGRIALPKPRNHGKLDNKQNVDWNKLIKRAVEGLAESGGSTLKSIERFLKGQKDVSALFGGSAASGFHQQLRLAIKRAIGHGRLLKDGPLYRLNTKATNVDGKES
Strand | E-score
ACCGGCAG | 0.189
AATAGACC | 0.0354
ACACCTAA | -0.117

Mixed results
Molecule | target | test | system | setting | how to read | measurement | result
PhoQ, residues 284 288 289 292 302 303 ASSHFY | PhoP, residues 12 14 15 18 19 SPWRL (Escherichia coli, UniProt P23836) | Sort-seq, measured: YFP reporter | E. coli | PhoQ-PhoP variant library, added: 10 µM Mg2+ | reference: high Mg2+ state, higher = stronger signaling | fold induction | 1.43

Some of these lines once more (set 1):
Strand | log fluorescence [z-score]
GCCTAGCACTTACATTTTAATTTTATTTGGTGCTAGGTCTTGATTCGCTTGACGCTGCTG | 0.543
GCCTAGCACTTGGATTTCAGTTCCGATTAGTGCTAGGTCTTGATTCGCTTGACGCTGCTG | 1.3
